Assay results from different studies.
Protocols differ between the studies behind these lines.
Target: Testis-specific serine/threonine-protein kinase 3 (TSSK3, Homo sapiens, UniProt Q96PN8)

Cc1nc2c(F)cc(-c3nc(Nc4ccc(CNC(=O)CCCCCCC(=O)NO)cc4)ncc3F)cc2n1C(C)C — inhibition (enzyme activity, inhibitor; 1 µM): 13%
Nc1ncc2c(n1)-c1c([nH]c3ccc(C4=CCOCC4)cc13)CCC2 — remaining binding (binding, competition with immobilised ligand; 1 µM): 100%
O=C(Cc1ccc(OCc2ccccc2)cc1)NC1(C(=O)O)CCN(C(=O)c2ccc(-c3cccc(Cl)c3)cc2)CC1 — activity vs control (enzyme activity, inhibitor; 10 µM): 103%
CCn1cc(C(=O)O)c(=O)c2c(N)c(F)c(NC3CCCCC3)cc21 — inhibition (kinase activity; 0.1 µM, added: ATP at Km): 9.3%
CCN1CCN(Cc2ccc(NC(=O)c3ccc(C)c(NC(=O)c4cncc(-c5cnn(C)c5)c4)c3)cc2C(F)(F)F)CC1 — remaining binding (binding, competition with immobilised ligand; 1 µM): 100%
COc1c(Cl)cccc1Nc1c(-c2ccncc2C#C[C@@]2(C)CCCN2C(=O)/C=C/CN(C)C)[nH]c2c1C(=O)NCC2 — remaining binding (binding, competition with immobilised ligand; 3 µM): 82%
COc1cc(Nc2nccc(-c3cnn4nc(OC)ccc34)n2)cc(C(F)(F)F)c1 — remaining binding (binding, competition with immobilised ligand; 1 µM): 83%
NC(=O)C[C@H]1CCc2sc3ncnc(O[C@H]4CC[C@H](N5CCOCC5)CC4)c3c21 — inhibition (enzyme activity, inhibitor; 10 µM): -5%
CN1CC[C@@H](COc2cnc(C#N)cc2-c2ccn3nc(NC(=O)C4CC4)cc3c2)C1 — inhibition (enzyme activity, inhibitor; 1 µM): -9%
COc1cc(Nc2nc(C)cc(-c3cnn4nc(OC)ccc34)n2)cc(C(F)(F)F)c1 — remaining binding (binding, competition with immobilised ligand; 1 µM): 100%
CC(C)=CC1OC(C)(C)C2C=C3C(=O)C(Cl)=CC(O)C3C3C(O)C4OC4C(=O)C132 (centres unmarked) — remaining binding (cell-free assay, competition with immobilised ligand; 10 µM): 100%
CNC(=O)C1CCN(c2cc(C)c(F)cc2NC(=O)c2ccc(-c3cc(O)ccc3C)c(C)c2)CC1 — remaining binding (binding, competition with immobilised ligand; 1 µM): 99%
CNC(=O)C[C@H](Cc1ccc(C#N)cc1)NC(=O)c1cc(-c2ccc(CN[C@H](C)c3ccc(C)cc3)o2)ccc1Cl — activity vs control (enzyme activity, inhibitor; 1 µM): 100%
Nc1ncc(-c2cc(-c3cnn(CC(F)(F)F)c3)ncc2F)nc1C(=O)NC1CNCC(F)C1 (centres unmarked) — remaining activity (enzyme activity; 1 µM; reference: DMSO control): 95.8%
Cc1cnc2nc1Nc1cccc(c1)COC/C=C/COCc1cc(ccc1OCCN1CCOCC1)N2 — remaining binding (binding, competition with immobilised ligand; 0.1 µM): 94%
NC(=O)[C@@H](O)C[C@H]1CCc2sc3ncnc(O[C@H]4CC[C@H](N5CCOCC5)CC4)c3c21 — inhibition (enzyme activity, inhibitor; 10 µM): 0%
C=CC(=O)N1CCCC(n2c(=O)c3ncccc3n(Cc3ccc(Oc4ccccc4)cc3)c2=O)C1 (centres unmarked) — remaining binding (cell-free assay, competition with immobilised ligand; 1 µM): 73%

Some of these lines once more:
CNC(=O)C1CCN(c2cc(C)c(F)cc2NC(=O)c2ccc(-c3cc(O)ccc3C)c(C)c2)CC1 — remaining binding (binding, competition with immobilised ligand; 1 µM): 99%
COc1cc(Nc2nc(C)cc(-c3cnn4nc(OC)ccc34)n2)cc(C(F)(F)F)c1 — remaining binding (binding, competition with immobilised ligand; 1 µM): 100%
